Results collected from several papers.
Protocols differ between the studies behind these lines. ± marks the error that the study gave.

| SMILES | test | test system | conditions | quantity | result |
| --- | --- | --- | --- | --- | --- |
| COC(=O)C[C@H](NC(=O)[C@H](C)NC(=O)[C@@H](NC(=O)[C@H](CC(=O)OC)NC(=O)[C@@H](NC(=O)c1ccc2ccccc2n1)C(C)C)C(C)C)C(=O)COc1c(F)cccc1F | telemetry | conscious dog | intravenous, up to 3 mg/kg | heart rate and QTc | no effect |
| C[C@@H](O)[C@@H]1NC(=O)[C@H](CCCCN)NC(=O)CCC(=O)NCCCC[C@@H](C(=O)NCC(=O)NCC(=O)N[C@@H](Cc2ccc(O)cc2)C(=O)NCC(=O)N[C@@H](CCCNC(=N)N)C(=O)N[C@@H](CCCCN)C(=O)N[C@@H](CCCCN)C(=O)N[C@@H](CCCNC(=N)N)C(=O)N[C@@H](CCCNC(=N)N)C(=O)N[C@@H](CCC(N)=O)C(=O)N[C@@H](CCCNC(=N)N)C(=O)N[C@@H](CCCNC(=N)N)C(=O)N[C@@H](CCCNC(=N)N)C(N)=O)NC(=O)[C@H](CCCCN)NC(=O)[C@H](CCC(=O)O)NC(=O)[C@H](CC(=O)O)NC(=O)CNC1=O |  | PBS | up to 24 h, pH 7.4, 80 °C | HPLC purity | 100% |
| CSCC[C@H](NC(=O)CNC(=O)[C@H](CC(=O)O)NC(=O)[C@@H](NC(=O)[C@@H](NC(=O)[C@@H](NC(=O)CNC(=O)[C@H](CCC(N)=O)NC(=O)[C@H](CCSC)NC(=O)[C@H](CC(=O)O)NC(=O)[C@H](C)NC(=O)[C@H](C)NC(=O)[C@@H](NC(=O)[C@H](CO)NC(=O)[C@@H](N)CC(C)C)[C@@H](C)O)C(C)C)C(C)C)[C@@H](C)O)C(=O)N[C@@H](C)C(=O)N[C@@H](CO)C(=O)NCC(=O)N[C@@H](CC(C)C)C(=O)N[C@@H](CC(=O)O)C(=O)N[C@@H](CCCCN)C(=O)N[C@@H](CC(=O)O)C(=O)N[C@@H](Cc1ccc(O)cc1)C(=O)N[C@@H](CC(C)C)C(=O)N[C@@H](CCCCN)C(=O)N1CCC[C@H]1C(=O)N[C@@H](CC(=O)O)C(=O)N[C@@H](CC(=O)O)C(=O)O |  | human, serum | intravenous, 2.5 mg/kg, patients, infusion | clearance | 21.6 mL/min/kg |
| CC(C)[C@H](NC(=O)CNC(=O)[C@H](CCC(N)=O)NC(=O)[C@H](C)N)C(=O)O |  | human | intravenous infusion, 45 mg/kg/h, 2 h infusion | subjects with moderate adverse events | 0% |
| CC(C)C[C@H](NC(=O)CN)C(=O)NCC(=O)N[C@@H](CCCCN)C(=O)N[C@@H](CC(C)C)C(=O)N[C@@H](CC(C)C)C(=O)N[C@@H](Cc1c[nH]cn1)C(=O)N[C@@H](C)C(=O)N[C@@H](C)C(=O)N[C@@H](CCCCN)C(=O)N[C@@H](CCCCN)C(=O)N[C@@H](CC(C)C)C(=O)NCC(=O)N[C@@H](CCCCN)C(=O)N[C@@H](C)C(=O)N[C@@H](Cc1c[nH]c2ccccc12)C(=O)N[C@@H](CC(C)C)C(=O)NCC(=O)N[C@@H](CCC(=O)O)C(=O)N[C@@H](CC(C)C)C(=O)N[C@@H](CC(C)C)C(=O)N[C@@H](C)C(=O)N[C@@H](C)C(=O)O | circular dichroism | POPC/POPG 1:1 vesicles | 20 µM | helicity | 40% |
| CCCC(CCC)C(=O)OC1O[C@@H]2O[C@@]3(C)CC[C@H]4[C@H](C)CCC([C@H]1C)[C@@]24OO3 (some centres unmarked) |  | Tg(fli1:EGFP) zebrafish embryos | 1.0 µg/mL, up to 48 hpf | dead embryos | 3 count |
| CCCCCCCCCCCCC(=O)O.O=C1CCCC2C3CCCN4CCCC(CN12)C34 (centres unmarked) | electrical conductivity | water | 298.15 K, critical micelle concentration | standard entropy of micellization | 88.7 J/(mol·K) |
| CC(C)C[C@@H](NC(=O)[C@@H](CCCCN)NC(=O)CNC(=O)CNC(=O)[C@@H]1CSSC[C@H](N)C(=O)NCC(=O)N[C@@H](CCCNC(=N)N)C(=O)N[C@@H](CCCNC(=N)N)C(=O)N[C@@H](C)C(=O)NCC(=O)NCC(=O)N[C@@H](CO)C(=O)N1)C(=O)N[C@H](C)C(=O)N[C@H](CCCCN)C(=O)N[C@H](CC(C)C)C(=O)N[C@H](C)C(=O)N[C@H](CCCCN)C(=O)N[C@H](CCCCN)C(=O)N[C@H](CC(C)C)C(=O)N[C@H](C)C(=O)N[C@H](CCCCN)C(=O)N[C@H](CC(C)C)C(=O)N[C@H](C)C(=O)N[C@H](CCCCN)C(=O)O |  | cynomolgus monkey | intravenous, dose not given, weekly, highest dose | kidney weight | increased |
| Cc1cccc(-c2cccc(C)n2)n1.[Cl-].[Cl-].[Ru+2].c1ccc(-c2ccccn2)nc1.c1ccc(-c2ccccn2)nc1 | UV/Vis | PBS | concentration not given | photoactivation half-life | 15.1 ± 0.7 s |
| CCCCCCCC(=O)SCC/C=C/[C@@H]1CC(=O)NCc2nc(cs2)C2=N[C@@](C)(CS2)C(=O)N[C@@H](C(C)C)C(=O)N1 |  | mouse NIH Swiss, female | intravenous, 5 mg/kg | beta rate constant | 0.005 min⁻¹ |
| N=C(N)NCc1ccc(C(=O)NCCCC[C@H](NC(=O)CCCCCCC(=O)NCCCC[C@H](NC(=O)N[C@@H](CCC(=O)O)C(=O)O)C(=O)O)C(=O)O)cc1[211At] |  | SCID mouse, PC-3 xenografts, lungs | 2 h | tissue uptake | 1.96 ± 0.26 %ID/g |
| O=c1cc(-c2ccccc2)oc2c(Br)c(O)c(O)c(O)c12 |  | C57BL/6 mouse, plasma | po, 150 mg/kg | AUC extrapolated percentage | 5.6 ± 4.8% |
| CC[C@H](C)C(=O)N1CCC(NC(=O)Nc2ccc(OC(F)(F)F)c(F)c2)CC1 |  | healthy volunteers | oral, 0.5 mg single dose, 14 (unit not given) | subjects with any AE | 33.3% |
| CC[C@H](C)[C@H](NC(=O)[C@H](Cc1c[nH]c2ccccc12)NC(=O)[C@H](CCCCN)NC(=O)[C@H](CC(C)C)NC(=O)[C@@H](NC(=O)[C@@H](NC(=O)CNC(=O)[C@H](CCCCN)NC(=O)[C@H](Cc1c[nH]cn1)NC(=O)[C@H](CCCCN)NC(=O)[C@H](Cc1c[nH]c2ccccc12)NC(=O)[C@H](C)NC(=O)[C@H](CC(C)C)NC(=O)[C@H](CO)NC(=O)[C@@H](NC(=O)[C@H](Cc1ccc(O)cc1)NC(=O)[C@H](CCCCN)NC(=O)[C@H](CCC(N)=O)NC(=O)CNC(=O)[C@H](CCCCN)NC(=O)[C@@H](NC(=O)[C@H](C)NC(=O)[C@H](CC(C)C)NC(=O)[C@H](Cc1ccccc1)NC(=O)[C@H](CCC(N)=O)NC(=O)[C@@H](NC(=O)[C@H](CC(C)C)NC(=O)[C@H](CCCCN)NC(=O)[C@H](CCSC)NC(=O)[C@H](Cc1ccccc1)NC(=O)[C@H](C)NC(=O)[C@H](C)NC(=O)[C@H](CCSC)NC=O)[C@@H](C)CC)[C@@H](C)O)C(C)C)[C@@H](C)O)[C@@H](C)CC)C(=O)N[C@@H](CC(N)=O)C(=O)N[C@@H](C)C(=O)NCC(=O)N[C@@H](CCC(N)=O)C(=O)N[C@@H](CO)C(=O)N[C@@H](Cc1ccccc1)C(=O)N[C@@H](CCC(=O)O)C(=O)N[C@@H](Cc1c[nH]c2ccccc12)C(=O)N[C@H](C(=O)N[C@@H](Cc1ccc(O)cc1)C(=O)N[C@@H](CCCCN)C(=O)N[C@@H](CCC(N)=O)C(=O)N[C@H](C(=O)N[C@@H](CCCCN)C(=O)N[C@@H](CCCCN)C(=O)N[C@@H](CC(C)C)C(=O)N[C@@H](Cc1c[nH]c2ccccc12)C(=O)N[C@@H](C)C(=O)O)[C@@H](C)CC)[C@@H](C)CC |  |  | 900 µM, pH 7.4, 25 °C | zeta potential | 20.8 ± 3.8 mV |
| COc1cc(NC(=O)C(=O)c2c(C)n(Cc3ccc(Cl)cc3)c3ccc(C)cc23)ccn1 |  | cynomolgus monkey, plasma | intravenous, 1 mg/kg | Vd | 6.45 L/kg |
| [2H]C([2H])([2H])C([2H])([2H])C([2H])([2H])OC(C(=O)OC1CCNCC1)(c1ccccc1)c1ccccc1 |  | healthy Japanese male | oral, 8 to 18 mg once daily, 16 days | adverse event incidence | 25.7% |
| CSCC[C@@H]1NC(=O)[C@@H]2CSSC[C@H](NC(=O)[C@H](CO)NC(=O)[C@H](C)N)C(=O)N[C@@H](CCCNC(=N)N)C(=O)N[C@@H]([C@@H](C)O)C(=O)N3CCC[C@H]3C(=O)N[C@@H](CCCCN)C(=O)N[C@@H](CC(=O)O)C(=O)N[C@H]3CSSC[C@H](NC(=O)[C@H](CCCCN)NC(=O)[C@H](CCCNC(=N)N)NC(=O)[C@H](CC(N)=O)NC1=O)C(=O)N[C@@H](CCCCN)C(=O)N[C@H]1CSSC[C@H](NC(=O)[C@@H]4CCCN4C(=O)[C@H](CC(=O)O)NC(=O)[C@H](C)NC3=O)C(=O)N[C@@H](C)C(=O)N[C@@H](CCCCN)C(=O)N[C@@H](CCC(=O)O)C(=O)N[C@@H]([C@@H](C)O)C(=O)NCC(=O)N[C@@H](CSSC[C@@H](C(N)=O)NC(=O)[C@H](CCCNC(=N)N)NC(=O)[C@H](CC(N)=O)NC1=O)C(=O)N1CCC[C@H]1C(=O)N[C@@H](Cc1ccc(O)cc1)C(=O)NCC(=O)N[C@@H](CCCCN)C(=O)N2 |  | DA rat, pristane-induced arthritis, serum | subcutaneous, 0.1 mg/kg every other day, end of 21-day trial | AST | 112 U/L |
| CC(C)C[C@H](NC(=O)[C@H](CCCCN)NC(=O)[C@H](CCC(=O)O)NC(=O)[C@H](C)NC(=O)[C@@H](NC(=O)[C@H](CCCCN)NC(=O)[C@H](CC(=O)O)NC(=O)[C@H](Cc1ccc(O)cc1)NC(=O)[C@H](Cc1ccccc1)NC(=O)[C@H](C)NC(=O)[C@H](CCCCN)NC(=O)[C@H](CC(C)C)NC(=O)[C@H](Cc1c[nH]c2ccccc12)NC(=O)[C@@H](N)CC(=O)O)C(C)C)C(=O)N[C@@H](CCCCN)C(=O)N[C@@H](CCC(=O)O)C(=O)N[C@@H](C)C(=O)N[C@@H](Cc1ccccc1)C(=O)N1CCC[C@H]1C(=O)N[C@@H](CC(=O)O)C(=O)N[C@@H](Cc1c[nH]c2ccccc12)C(=O)N[C@@H](C)C(=O)N[C@@H](CCCCN)C(=O)N[C@@H](C)C(=O)N[C@@H](C)C(=O)N[C@@H](Cc1ccc(O)cc1)C(=O)N[C@@H](CC(=O)O)C(=O)N[C@@H](CCCCN)C(=O)N[C@@H](C)C(=O)N[C@@H](C)C(=O)N[C@@H](CCC(=O)O)C(=O)N[C@@H](CCCCN)C(=O)N[C@@H](C)C(=O)N[C@@H](CCCCN)C(=O)N[C@@H](CCC(=O)O)C(=O)N[C@@H](C)C(=O)N[C@@H](C)C(=O)O |  | cynomolgus monkey female, plasma | intravenous infusion, 8 mg/kg every other day, day 27 | Tmax | 0 h |
| COCC(=O)NCCSc1c(-c2ccc(Br)cc2)[nH]c2ccccc12 | metabolic stability | rat, hepatocytes |  | hepatocyte CLint | > 400 µL/min/10⁶ cells |
| C#Cc1c(F)ccc2cc(O)cc(-c3ncc4c(N5CC6CCC(C5)N6C(=O)CC(C)CC(=O)OCC)nc(OC[C@@]56CCCN5C[C@H](F)C6)nc4c3F)c12 (some centres unmarked) |  | mouse whole blood | 60 min | parent drug release | not detected |
